Assay results gathered from unrelated publications.
Several values in a cell are separate wells, animals, samples, runs or records.
B1: pyrE (Burkholderia cenocepacia, UniProt B4E589); sequence looked up; chain MTGYDRQSISDTTAKILLEVQAVHFNAEKPFIFTSGWASPVYIDCRKLISYPRVRRALMEMAETTITRDIGFEQIDAVAGGETAGIPFAAWIADRMMVPMQYVRKKPKGFGRNAQIEGHLEEGSRVLLVEDLTTDSRSKINFVNALRTAGATVNHCFVLFHYNIFKESVSVLKDIDVDLHALATWWDVLRVAKASGYFETKTLDEVEKFLHAPAEWSAAHGGATAPKE
B2: gpI (bacteriophage lambda, UniProt P03730); sequence looked up; chain MAATHTLPLASPGMARICLYGDLQRFGRRIDLRVKTGAEAIRALATQLPAFRQKLSDGWYQVRIAGRDVSTSGLTAQLHETLPDGAVIHIVPRVAGAKSGGVFQIVLGAAAIAGSFFTAGATLAAWGAAIGAGGMTGILFSLGASMVLGGVAQMLAPKARTPRIQTTDNGKQNTYFSSLDNMVAQGNVLPVLYGEMRVGSRVVSQEISTADEGDGGQVVVIGR
B3: ClpX 1-426 (Pseudomonas aeruginosa, UniProt Q9I2U0); chain MTDTRNGEDNGKLLYCSFCGKSQHEVRKLIAGPSVFICDECVDLCNDIIREEVQEAQAESSGHKLPAPKEIRTILDQYVIGQERAKKVLAVAVYNHYKRLNQRDKKDDIELGKSNILMIGPTGSGKTLLAETLARLLNVPFTIADATTLTEAGYVGEDVENIIQKLLQKCDYDVEKAQMGIVYIDEIDKISRKSDNPSITRDVSGEGVQQALLKLIEGTVASVPPQGGRKHPQQEFLQVDTRNILFICGGAFAGLERVIQNRSARGGIGFNAEVRSQEMGKKVGEAFKEVEPEDLVKFGLIPEFVGRLPVIATLDELDEAALMQILTEPKNALTKQYAKLFEMEGVDLEFRPDALKAVARKALERKTGARGLRSILEGILLDTMYEIPSQQDVSKVVIDESVIDGSSQPLMIYENSEKPAKAAPEA
B4: Csm2 1-140 (Enterococcus italicus, UniProt E6LHV6); chain MELAKTKTGEMIDLNFARKVVEENKRVKDNRGRQEIVLFNGLTTSKLRNLLELINHVYTKVYNSDDTTLSEDVRDELEYLKVKFAYESGREPAVRTFIEKTYVDKLVDVVLKKNTKKIFLDYCKYFEALVAYAKFYRMGD
B5: yukC (Bacillus subtilis, UniProt P71070); sequence looked up; chain MSGEQKSYLENQLEAVAEKTDAGYTFTFQREKIKLLDGLEANVIKDINPFFHKEIDVTDDEVIITIQPPSSYKAFRFMKAKDKKSKWQFAYQLVQAVQQHNLSRLNLIVAPENIVFDKGLTPYFLHYGVKESIPPYERDEERVWQELKAAAALAVDGAFAFEDYLKFNETLTFSAEAKAILDAESYDDLLELIQTHIDELEAKAKTYIHIPRKKWNIQRYIGLGLIVLLVPALIYSMYALFFAQPKHQAIVDSNRAFLNKQYSEVISTLSKYDAESLPESVQYQLATSYVEVENLGSAKTKNIENNLVTLQSDPQHFLYWIDYGRGEYKEAISIGRKLEYNDYIYFALAKYKQQLLSEDTNDEDIQKELDSVNSELEKAQKERQENKQSNSETSLVDTSEEQTQTDEEKQAEEKAAEEKAAAEEKAKKEEQKEKEDEKKETEKKDEKKDDK
B6: tad1 Q98A/E99A/M102A/W103A/K106A (Metaclostridioides mangenotii, UniProt P0DW61); chain MEIKNGLCTQKYTKVYAEDKEKWKFNAPHHFIVGKADCEDEYIEPIEYVNFQEGPIKEYGINGVNNEDLILMVITRLQAFQDSPYKCRENAMAITKLAACLAALGARTLDREVKGIEGTSEI
B7: ilvA 1-422 (Staphylococcus aureus, UniProt Q2FF63); sequence looked up; chain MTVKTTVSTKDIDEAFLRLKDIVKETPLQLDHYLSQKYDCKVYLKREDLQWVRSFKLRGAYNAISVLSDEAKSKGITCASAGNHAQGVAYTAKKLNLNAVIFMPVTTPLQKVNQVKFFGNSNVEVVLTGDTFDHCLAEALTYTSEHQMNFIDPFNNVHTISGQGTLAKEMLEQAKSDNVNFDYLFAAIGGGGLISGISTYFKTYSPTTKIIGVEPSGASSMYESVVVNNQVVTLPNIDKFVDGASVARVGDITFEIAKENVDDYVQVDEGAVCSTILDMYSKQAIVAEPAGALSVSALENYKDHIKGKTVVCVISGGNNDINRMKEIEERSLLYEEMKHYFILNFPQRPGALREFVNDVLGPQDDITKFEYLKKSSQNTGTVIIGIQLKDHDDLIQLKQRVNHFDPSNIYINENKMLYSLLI
B8: FII (bacteriophage lambda, UniProt P03714); sequence looked up; chain MADFDNLFDAAIARADETIRGYMGTSATITSGEQSGAVIRGVFDDPENISYAGQGVRVEGSSPSLFVRTDEVRQLRRGDTLTIGEENFWVDRVSPDDGGSCHLWLGRGVPPAVNRRR
B9: panD R99A (Mycobacterium abscessus, UniProt B1MGV7); chain MMFRTMMKSKIHRATVTHADLHYVGSVTIDPDLMEAADLLEGEQVTIVDIDNGARLETYAITGTRGSGVIGINGAAAHLVHPGDLVIIIAYGVMTDEEAAAFTPRVVFVDSDNKQVELGEHSDDPAYVPENFGLVSPRGLV
B10: protein 1-735 A444P (UniProt C7Z7K1); chain MSNLKDFSQPGSGQESNFGVDFVIHYKVPAAERDEAEAGFVQLIRALTTVGLATEVRHGENESLLVFVKVASPDLFAKQVYRARLGDWLHGVRVSAPHNDIAQALQDEPVVEAERLRLIYLMITKPHNEGGAGVTPTNAKWKHVESIFPLHSHSFNKEWIKKWSSKYTLEQTDIDNIRDKFGESVAFYFAFLRSYFRFLVIPSAFGFGAWLLLGQFSYLYALLCGLWSVVFFEYWKKQEVDLAVQWGVRGVSSIQQSRPEFEWEHEAEDPITGEPVKVYPPMKRVKTQLLQIPFALACVVALGALIVTCNSLEVFINEVYSGPGKQYLGFLPTIFLVIGTPTISGVLMGAAEKLNAMENYATVDAHDAALIQKQFVLNFMTSYMALFFTAFVYIPFGHILHPFLNFWRATAQTLTFSEKELPTREFQINPARISNQMFYFTVTPQIVNFATEVVVPYIKQQAFQKAKQLKSGSKVQEDHEEEAEFLQRVREECTLEEYDVSGDYREMVMQFGYVAMFSVAWPLAACCFLVNNWVELRSDALKIAISSRRPIPWRTDSIGPWLTALSFLSWLGSITSSAIVYLCSNSKNGTQGEASPLKAWGLLLSILFAEHFYLVVQLAVRFVLSKLDSPGLQKERKERFQTKKRLLQENLGQDAAEEAAAPGIEHSEKITREALEEEARQASIRGHGTPEEMFWQRQRGMQETIEIGRRMIEQQLAAGKNGKKSAPAVPSEKAS
B11: PALB2 1-195 I195W (Homo sapiens, UniProt Q86YC2); chain MDEPPGKPLSCEEKEKLKEKLAFLKREYSKTLARLQRAQRAEKIKHSIKKTVEEQDCLSQQDLSPQLKHSEPKNKICVYDKLHIKTHLDEETGEKTSITLDVGPESFNPGDGPGGLPIQRTDDTQEHFPHRVSDPSGEQKQKLPSRRKKQQKRTFISQERDCVFGTDSLRLSGKRLKEQEEISSKNPARSPVTEW
B12: Rep helicase domain 210-536 (adeno-associated virus 2, UniProt P03132); chain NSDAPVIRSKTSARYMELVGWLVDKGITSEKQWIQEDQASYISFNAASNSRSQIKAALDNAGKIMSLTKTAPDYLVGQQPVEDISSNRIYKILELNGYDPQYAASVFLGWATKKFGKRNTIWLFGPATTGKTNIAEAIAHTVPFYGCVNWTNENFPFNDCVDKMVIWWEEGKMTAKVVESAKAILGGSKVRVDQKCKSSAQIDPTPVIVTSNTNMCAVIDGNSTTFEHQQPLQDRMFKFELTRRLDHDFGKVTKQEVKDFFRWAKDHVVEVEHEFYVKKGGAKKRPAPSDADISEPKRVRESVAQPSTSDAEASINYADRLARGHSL
B13: panD S135A (Mycobacterium abscessus, UniProt B1MGV7); chain MMFRTMMKSKIHRATVTHADLHYVGSVTIDPDLMEAADLLEGEQVTIVDIDNGARLETYAITGTRGSGVIGINGAAAHLVHPGDLVIIIAYGVMTDEEARAFTPRVVFVDSDNKQVELGEHSDDPAYVPENFGLVAPRGLV

| Substance | target or system | assay | test system | setting | how to read | measurement | value |
| --- | --- | --- | --- | --- | --- | --- | --- |
| B1 (pyrE) | itself | SEC |  |  |  | subunits per oligomer | 4 |
| B2 (gpI) | itself | cryo-EM |  |  |  | subunits per oligomer | 3 |
| B3 (ClpX 1-426) | itself | cryo-EM |  |  |  | subunits per oligomer | 6 |
| B4 (Csm2 1-140) | itself | cryo-EM |  |  |  | subunits per oligomer | 3 and 2 |
| B5 (yukC) | itself | cryo-EM |  |  |  | subunits per oligomer | 2 |
| B6 | itself | SEC-MALS |  |  |  | subunits per oligomer | 2 |
| insulin human |  | refers to: ADCY1 mRNA | uninfected mouse, brain | i.p., dose not given | baseline: PBS | fold change | 1.33 |
| B7 (ilvA 1-422) | itself | SEC |  |  |  | subunits per oligomer | > 4 |
| B8 (FII) | itself | cryo-EM |  |  |  | subunits per oligomer | 6 |
| B9 (panD R99A) | itself | native gel |  |  |  | subunits per oligomer | 4 |
| B10 (protein 1-735 A444P) | itself | cryo-EM |  |  |  | subunits per oligomer | 2 |
| B11 (PALB2 1-195 I195W) | itself | SEC-MALS |  |  |  | subunits per oligomer | 2 |
| B12 (Rep helicase domain 210-536) | itself | averages, 2D class, cryo-EM |  |  |  | subunits per oligomer | 7 |
| B13 (panD S135A) | itself | native gel |  |  |  | subunits per oligomer | 4 |

For quick reference, copied from above:
| Substance | target or system | assay | test system | setting | how to read | measurement | value |
| --- | --- | --- | --- | --- | --- | --- | --- |
| B8 (FII) | itself | cryo-EM |  |  |  | subunits per oligomer | 6 |
| insulin human |  | refers to: ADCY1 mRNA | uninfected mouse, brain | i.p., dose not given | baseline: PBS | fold change | 1.33 |
